Measured values of several laboratories.
± marks the error that the study gave.

COc1cc2c(cc1OC)C(=O)C(=Cc1ccc(N3CC[N+](C)(C)CC3)cc1)C2  LD50 (B16; cell viability, MTT; 48 h): 3.17 µM
Cc1cc(Nc2nc(C[C@@]3(C(=O)O)CCN(Cc4cccc(Cl)c4F)[C@H](C)C3)cc(C)c2F)n[nH]1  IC90 (human bone marrow CFU-GM; colony formation; 13 to 15 days): 0.618 µM
COC(=O)C1CN1S(=O)(=O)c1ccc(F)cc1F (stereo not shown)  IC50 (Balb/c 3T3 fibroblasts; cytotoxicity, neutral red uptake; DMEM with 5% FBS; 24 h): 60 ± 5 µM
COc1c(C(=O)/C=C/c2ccccc2)ccc2occc12  viability (differentiated SH-SY5Y; MTT; 1 µM; baseline: control): 105 ± 3.5%
CN[C@](C)(C[18F])C(=O)O  tracer uptake (SK-OV-3 tumour model; host not given, lung; 1 h, tumour-bearing): 1.6 %ID/g
CN(C)CC1CCCCC1(O)c1cccc(O)c1 (stereo not shown)  Papp B-to-A (human P-glycoprotein; Caco-2 TC7 monolayer; 100 µM, 3 h, apical pH 6.8, basolateral pH 7.4, with: cyclosporine A 10 µM): 20.6 ± 0.3 ×10⁻⁶ cm/s
COC1(c2ccccc2)CC(=O)c2c(cc3c(c2O)C=CC(C)(C)O3)O1 (stereo not shown)  viability (differentiated SH-SY5Y; MTT; 100 µM; baseline: control): 76.3 ± 4.7%
CCc1nc2cc3ccccc3cc2cc1C(=O)N1CCC[C@H]1C(=O)N[C@@H](C/C=C/C[C@H](NC(=O)[C@@H]1CCCN1C(=O)c1cc2cc3ccccc3cc2nc1CC)C(=O)N[C@@H](CCCCN)C(=O)NCCCN)C(=O)N[C@@H](CCCCN)C(=O)NCCCN  cytotoxicity (C2C12 mouse myoblasts; MTT; up to 100 µM, 48 h): not toxic
COc1cc(C(=O)NCCOCCOCCOCCNC(=O)c2ccc([18F])nc2)ccc1NC(=O)C1NC(CC(C)(C)C)C(C#N)(c2ccc(Cl)cc2F)C1c1cccc(Cl)c1F (stereo not shown)  tracer uptake (SJSA-1 tumour model; host not given, spleen; 2 h, tumour-bearing): 0.42 %ID/g
CCCCn1cc(C(=O)O)c(=O)c2cc(F)c(Nc3cccc(Cl)c3)c(N)c21  IC50 (T47D; cell growth, SRB; 72 h): 6.02 ± 0.19 µg/mL
CC1(C)C=Cc2c(ccc3c(=O)cc(-c4ccccc4)oc23)O1  viability (differentiated SH-SY5Y; MTT; 10 µM; baseline: control): 98.4 ± 3.4%
COC(=O)[C@H](CO)NC(=O)[C@H](CCCCN(CC(C)C)C1CC2CCC1C2)NC(=O)[C@H](CCCN1CCOCC1)NC(=O)[C@H](C(C)C)N(C)C(=O)[C@H](Cc1ccccc1)NC(=O)c1ccc(C(C)(C)C)cc1 (stereo partly shown)  DC50 (mouse embryonic stem cells; cytotoxicity, CellTiter-Glo; 48 h): 4.4 ± 0.41 µM
N=C(N)NCCC[C@@H]1NC(=O)[C@H](CCCCNC(=O)CC[C@H](NC(=O)CCOCCOCCOCCOCCNC(=O)CC[C@H](NC(=O)CN2CCN(CC(=O)O)CCN(CC(=O)O)CCN(CC(=O)O)CC2)C(=O)NCCOCCOCCOCCOCCC(=O)N[C@@H](CCC(=O)NCCCC[C@@H]2NC(=O)[C@@H](Cc3ccccc3)NC(=O)[C@H](CC(=O)O)NC(=O)CNC(=O)[C@H](CCCNC(=N)N)NC2=O)C(=O)NCCCC[C@@H]2NC(=O)[C@@H](Cc3ccccc3)NC(=O)[C@H](CC(=O)O)NC(=O)CNC(=O)[C@H](CCCNC(=N)N)NC2=O)C(=O)NCCCC[C@@H]2NC(=O)[C@@H](Cc3ccccc3)NC(=O)[C@H](CC(=O)O)NC(=O)CNC(=O)[C@H](CCCNC(=N)N)NC2=O)NC(=O)[C@@H](Cc2ccccc2)NC(=O)[C@H](CC(=O)O)NC(=O)CNC1=O [indium-111 labelled]  tumour to tissue ratio (athymic nude mice, female, U-87 MG glioma xenograft, tumour and lungs; intravenous, 4 h; baseline: tumour over lungs): 4.4 ± 2.74
CC[C@H](C)C(=O)N1CCC(NC(=O)Nc2ccc(OC(F)(F)F)c(F)c2)CC1  subjects with serious TEAE (healthy volunteers; oral, 8 mg single dose): 0%
C(#Cc1cncc(OC[C@@H]2CCN2)c1)c1ccccc1  efflux ratio (Caco-2; Caco-2 permeability; 100 µM, 2 h, pH 7.4, with: verapamil 100 µM; baseline: Papp B to A over A to B): ~1
CCCCn1cc(C(=O)O)c(=O)c2cc(F)c(Nc3ccccc3Cl)c([N+](=O)[O-])c21  IC50 (PANC-1; cell growth, SRB; 72 h): 49.5 ± 3.91 µg/mL
N=C(N)NCCC[C@@H]1NC(=O)[C@H](CCCCNC(=O)CCOCCOCCOCCOCCNC(=O)CN2CCN(CC(=O)O)CCN(CC(=O)O)CCN(CC(=O)O)CC2)NC(=O)[C@@H](Cc2ccccc2)NC(=O)[C@H](CC(=O)O)NC(=O)CNC1=O [indium-111 labelled]  tissue uptake (female athymic nude mice, liver; intravenous, 3 µCi, 4 h, U-87 MG glioma xenograft): 0.9 ± 0.15 %ID/g
NCCCC[C@H](NC(=O)[C@H](CCCCN)NC(=O)[C@H](Cc1ccccc1)NC(=O)[C@H](Cc1ccccc1)NC(=O)CCCc1ccc2ccc3cccc4ccc1c2c34)C(N)=O  cytotoxicity (NIH/3T3; MTT; concentration not given, 24 h, normoxia): not toxic
Cc1ccc(S(=O)(=O)N2CC2C(=O)N(C)C)cc1 (stereo not shown)  IC50 (Balb/c 3T3 fibroblasts; cytotoxicity, neutral red uptake; DMEM with 5% FBS; 24 h): 93 ± 22 µM

For quick reference, copied from above:
COc1cc2c(cc1OC)C(=O)C(=Cc1ccc(N3CC[N+](C)(C)CC3)cc1)C2  LD50 (B16; cell viability, MTT; 48 h): 3.17 µM
Cc1cc(Nc2nc(C[C@@]3(C(=O)O)CCN(Cc4cccc(Cl)c4F)[C@H](C)C3)cc(C)c2F)n[nH]1  IC90 (human bone marrow CFU-GM; colony formation; 13 to 15 days): 0.618 µM
COC(=O)C1CN1S(=O)(=O)c1ccc(F)cc1F (stereo not shown)  IC50 (Balb/c 3T3 fibroblasts; cytotoxicity, neutral red uptake; DMEM with 5% FBS; 24 h): 60 ± 5 µM
